Results of several laboratories.
Each numbered part is a random draw from the data of one study; scales do not carry over between parts. Substitutions count along the parent as printed.

Set 1
Target: CCNE2, cyclin fold, Cln2 fusion (human)
Method: yeast growth competition, sequencing
Matrix: yeast
Setting: weak parent motif
Relative to: not given
Reading: higher = stronger binding
Starting sequence: viral docking peptide; PGASRRLFGSSAD; partner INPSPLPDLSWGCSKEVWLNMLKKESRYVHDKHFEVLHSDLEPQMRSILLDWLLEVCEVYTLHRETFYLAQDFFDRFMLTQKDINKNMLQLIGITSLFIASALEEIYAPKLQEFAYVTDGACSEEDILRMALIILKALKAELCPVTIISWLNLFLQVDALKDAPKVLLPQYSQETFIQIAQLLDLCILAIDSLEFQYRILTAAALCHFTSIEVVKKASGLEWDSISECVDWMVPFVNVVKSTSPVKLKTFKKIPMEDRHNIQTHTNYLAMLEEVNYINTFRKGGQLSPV
Under “normalised enrichment score”, `S11A` is recorded as 1.11.
`P1A`: “normalised enrichment score” 0.248.
`R5K`: “normalised enrichment score” 0.0701.
For `D13A`, “normalised enrichment score” read 0.859.
`R5A` — result for “normalised enrichment score”: 0.597.
For `R5K F8L`, “normalised enrichment score” read 0.538.
`F8A` — result for “normalised enrichment score”: 0.0755.
For `R5A L7A`, “normalised enrichment score” read 0.356.
For `L7A`, “normalised enrichment score” read 0.139.

Set 2
Target: tungstate, free oxyanion
Method: microfluidic competitive inhibition
Matrix: in vitro, cell-free expressed
Tested at: not given
Setting: derived from inhibition constants, unchanged parent 2230 nM
Reading: lower = stronger binding
Starting sequence: PafA, mature enzyme, eGFP fusion (Elizabethkingia meningoseptica, UniProt Q9KJX5); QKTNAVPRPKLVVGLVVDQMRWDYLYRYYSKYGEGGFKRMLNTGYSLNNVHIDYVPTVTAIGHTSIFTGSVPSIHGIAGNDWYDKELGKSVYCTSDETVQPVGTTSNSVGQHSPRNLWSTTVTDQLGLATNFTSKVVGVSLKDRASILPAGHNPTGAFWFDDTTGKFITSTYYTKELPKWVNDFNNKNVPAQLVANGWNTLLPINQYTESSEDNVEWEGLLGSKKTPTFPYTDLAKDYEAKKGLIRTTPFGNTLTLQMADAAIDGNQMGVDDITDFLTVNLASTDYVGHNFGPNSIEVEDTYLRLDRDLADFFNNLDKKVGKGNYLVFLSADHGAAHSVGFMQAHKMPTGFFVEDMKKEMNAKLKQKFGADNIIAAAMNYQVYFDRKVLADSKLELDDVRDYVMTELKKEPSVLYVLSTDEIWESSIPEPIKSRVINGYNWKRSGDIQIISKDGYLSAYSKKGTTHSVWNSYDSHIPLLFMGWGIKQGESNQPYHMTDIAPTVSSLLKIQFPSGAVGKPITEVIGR
`T497V` — result for “oxyanion analog dissociation constant”: 2.12 µM.
Under “oxyanion analog dissociation constant”, `G165V` is recorded as 0.974 µM.
For `A310V`, “oxyanion analog dissociation constant” read 2.09 µM.

Set 3
Target: UDP-N-acetylglucosamine--peptide N-acetylglucosaminyltransferase 110 kDa subunit (OGT, Homo sapiens, UniProt O15294)
Chain of UniProt O15294 (whole entry, looked up): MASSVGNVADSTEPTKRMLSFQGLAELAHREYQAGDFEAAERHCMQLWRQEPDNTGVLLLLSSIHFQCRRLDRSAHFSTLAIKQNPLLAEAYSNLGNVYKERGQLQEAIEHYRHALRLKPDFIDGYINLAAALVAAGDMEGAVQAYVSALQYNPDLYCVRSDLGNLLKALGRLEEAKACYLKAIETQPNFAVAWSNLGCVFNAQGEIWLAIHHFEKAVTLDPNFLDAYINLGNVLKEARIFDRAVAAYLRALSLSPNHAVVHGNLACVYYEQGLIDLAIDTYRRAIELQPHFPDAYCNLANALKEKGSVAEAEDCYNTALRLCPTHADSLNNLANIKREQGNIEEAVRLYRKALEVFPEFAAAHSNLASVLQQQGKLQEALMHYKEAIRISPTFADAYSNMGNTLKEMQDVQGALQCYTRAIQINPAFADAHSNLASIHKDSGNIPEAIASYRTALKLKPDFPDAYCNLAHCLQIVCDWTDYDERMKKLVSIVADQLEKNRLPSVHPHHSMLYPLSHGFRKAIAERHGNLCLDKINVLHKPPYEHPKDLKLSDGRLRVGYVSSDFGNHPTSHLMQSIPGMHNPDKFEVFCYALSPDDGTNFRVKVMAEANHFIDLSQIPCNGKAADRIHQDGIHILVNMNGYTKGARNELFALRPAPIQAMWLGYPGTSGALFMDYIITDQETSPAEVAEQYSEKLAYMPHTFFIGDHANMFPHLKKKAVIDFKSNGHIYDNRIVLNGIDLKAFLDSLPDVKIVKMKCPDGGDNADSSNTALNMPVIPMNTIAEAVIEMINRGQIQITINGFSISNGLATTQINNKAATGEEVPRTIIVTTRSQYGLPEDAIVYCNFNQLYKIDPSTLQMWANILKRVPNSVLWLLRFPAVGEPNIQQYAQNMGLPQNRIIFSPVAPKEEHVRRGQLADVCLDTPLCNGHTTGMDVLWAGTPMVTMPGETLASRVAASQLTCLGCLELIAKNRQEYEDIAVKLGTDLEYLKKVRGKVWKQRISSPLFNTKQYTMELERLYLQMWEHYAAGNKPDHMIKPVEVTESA
Observed: binding
Method: phage display NGS
Molecule type: peptide
Setting: panning round 2
Relative to: input library
For `HVHGASPHSRNHSA`, “minimum log2 enrichment ratio” read 2.62.
Under “minimum log2 enrichment ratio”, `WPHAQHITHQDDWHR` is recorded as 2.27.
For `HAQHTVQGNHQHVAH`, “minimum log2 enrichment ratio” read 4.38.

Single results of other studies
Method: cross-linking MS
Under cross-linked residues, `DNAAF19 (Homo sapiens, UniProt Q8IW40)` is recorded as “K33 to E82” (NOP58 (Homo sapiens, UniProt Q9Y2X3); cell fractions; with: DMTMM).
Under interaction screen, `NUP54 (Homo sapiens, UniProt Q7Z3B4)` is recorded as “cross-linked” (NUP58 (Homo sapiens, UniProt Q9BVL2); hits only).
`CDH2 (Homo sapiens, UniProt P19022)`: cross-linked residues “K896 to S48” (CTNNA1 (Homo sapiens, UniProt P35221); cell fractions; with: DSSO).
`NUP98 (Homo sapiens, UniProt P52948)` — result for cross-linked residues: “K563 to E161” (NUP205 (Homo sapiens, UniProt Q92621); cell fractions; with: DMTMM).

For quick reference, copied from above (set 1):
`F8A` — result for “normalised enrichment score”: 0.0755.
For `R5A L7A`, “normalised enrichment score” read 0.356.
For `L7A`, “normalised enrichment score” read 0.139.
